Assay results of several laboratories.
Every numbered part comes from another study and shows a few of its results, in no order. Substitutions count along the parent as printed.

Set 1
Target: CDC34 UBC core domain (UniProt P49427)
Method: yeast two-hybrid
Medium: yeast
Setting: mostly zero background
Relative to: not given
Reading: higher = stronger interaction
B1: TRIM28 RING domain (UniProt Q13263); chain GAEALELLEHCGVCRERLRPEREPRLLPCLHSACSACLGPAAPAAANSSGDGGAAGDGTVVDCPVCKQQCFSKDIVE
B2: TRIM68 RING domain (UniProt Q6AZZ1); chain LVEAIVEEVACPICMTFLREPMSIDCGHSFCHSCLSGLWEIPGESQNWGYTCPLCRAPVQPRNLRP
B3: MDM2 RING domain (UniProt Q00987); chain TQDKEESVESSLPLNAIEPCVICQGRPKNGCIVHGKTGHLMACFTCAKKLKKRNKPCPVCRQPIQMIVLTYFP
B4: RNF11 RING domain (UniProt Q9Y3C5); chain RDGSEKKIRECVICMMDFVYGDPIRFLPCMHIYHLDCIDDWLMRSFTCPSCMEPVDAALLSS
B5: TRIM32 RING domain (UniProt Q13049); chain NLDALREVLECPICMESFTEEQLRPKLLHCGHTICRQCLEKLLASSINGVRCPFCSKITRITSLTQ
B6: NHLRC1 RING domain (UniProt Q6VVB1); chain MREAEISLLECKVCFEKFGHRQQRRPRNLSCGHVVCLACVAALAHPRTLALECPFCRRACRGCDTSD
Residues (chain): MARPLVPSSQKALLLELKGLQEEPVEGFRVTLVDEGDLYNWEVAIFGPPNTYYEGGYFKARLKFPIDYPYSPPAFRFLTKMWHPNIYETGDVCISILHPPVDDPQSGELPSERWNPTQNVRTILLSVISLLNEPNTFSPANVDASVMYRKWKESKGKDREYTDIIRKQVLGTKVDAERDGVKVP
| Sequence | lacZ reporter activity |
| --- | --- |
| B1 (TRIM28 RING domain) | 0 |
| B2 (TRIM68 RING domain) | 0 |
| B3 (MDM2 RING domain) | 0 |
| B4 (RNF11 RING domain) | 0 |
| B5 (TRIM32 RING domain) | 0 |
| B6 (NHLRC1 RING domain) | 0 |
| FLSKVEETFQCICCQELVFRPITTVCQHNVCKDCLDRSFRAQVFSCPACRYDLGRSYAMQ (UHRF1 RING domain (UniProt Q96T88)) | 0 |

Set 2
Target: Histone acetyltransferase KAT6A, winged helix 1, GST fusion (KAT6A, Homo sapiens, UniProt Q92794, residues 1-85)
Method: protein binding microarray
Form: double-stranded DNA, one strand shown
Medium: in vitro
Concentration: not given
Setting: 8-mer, flanks averaged, mean of 2 arrays, mostly near background
Relative to: not given
Reading: higher = stronger binding
Construct (chain): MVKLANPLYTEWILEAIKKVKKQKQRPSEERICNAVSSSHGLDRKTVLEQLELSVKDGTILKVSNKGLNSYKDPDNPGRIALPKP
| Strand | E-score |
| --- | --- |
| TACTCATA | -0.0156 |
| CGCGTAAG | 0.364 |
| GTACTTGA | -0.0603 |
| AATAAACA | -0.0632 |
| CCTCTGGC | -0.138 |
| CTACAGGA | -0.148 |
| ACTAGACT | 0.0578 |
| CGGAGACA | 0.101 |
| ATGGGTGC | -0.0973 |
| AGTCGGTG | -0.128 |
| ATGCCTGA | -0.203 |
| CCAGTACG | -0.0617 |
| GAAACTTC | -0.179 |
| GATGGTCA | -0.0981 |
| TGGGAAAA | -0.214 |
| CCGCATAC | 0.238 |

Set 3
Target: CCND2, cyclin fold, Cln2 fusion (human)
Method: yeast growth competition, sequencing
Medium: yeast
Setting: strong parent motif
Relative to: not given
Reading: higher = stronger binding
Starting sequence: PKN2 docking peptide (human); VSAVRKLDFSDTM; partner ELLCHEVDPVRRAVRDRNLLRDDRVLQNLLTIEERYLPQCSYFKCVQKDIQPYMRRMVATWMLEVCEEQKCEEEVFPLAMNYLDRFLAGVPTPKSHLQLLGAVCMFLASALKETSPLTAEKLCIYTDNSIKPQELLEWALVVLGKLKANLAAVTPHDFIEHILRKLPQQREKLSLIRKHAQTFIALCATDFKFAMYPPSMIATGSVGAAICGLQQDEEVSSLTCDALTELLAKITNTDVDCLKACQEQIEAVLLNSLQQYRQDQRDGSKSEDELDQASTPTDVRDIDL
| Change | normalised enrichment score |
| --- | --- |
| F9I | 0.485 |
| T12M | 2.93 |
| L7F | 0.367 |
| D8C | 1.62 |
| F9E | 0.355 |
| D8A | 1.31 |
| R5L | 0.695 |
| D11V | 3.2 |
| S2N | 2.89 |
| T12L | 2.83 |
| D11N | 3.12 |
| K6T | 1.25 |
| R5M | 1.27 |
| K6V | 2.18 |
| F9W | 1.03 |
| S2W | 1.67 |

Set 4
Target: Fragile X messenger ribonucleoprotein 1, C-terminal low-complexity region (Fmr1, Mus musculus, UniProt P35922)
Method: RNA Bind-n-Seq
Form: RNA
Medium: in vitro
Concentration: 200 nM
Setting: whole 134-nt RNA, ends assumed
Together with: 150 mM KCl
Relative to: input library
Reading: higher = stronger binding
| Strand | log2 enrichment |
| --- | --- |
| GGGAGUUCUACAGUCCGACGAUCAAGUCCUGUGCUACACAUCGUAUGUACCGAAUCAAAUUUAAAUUUUUAAACCCAAAAAAGUAUUAUGUUACGCCGUUCGGAUCUGCACUUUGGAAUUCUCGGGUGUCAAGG | 0.206 |
| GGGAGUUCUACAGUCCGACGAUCUCAAGUCCUGUGCUACACAUCGUAUGUACCGAAUCGGGUGGGAAAAAGGGAGGGAAAGUAUUAUGUUACGCCGUUCGGAUCUGCACUUCCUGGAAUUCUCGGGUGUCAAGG | 1.13 |
| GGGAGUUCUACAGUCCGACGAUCCCUGUGCUACACAUCGUAUGUACCGAAUCGGAAAAAAAGGGAAAAAAAGGGGAAAAAAAGGAAAGUAUUAUGUUACGCCGUUCGGAUCUGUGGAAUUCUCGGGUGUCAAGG | -0.959 |
| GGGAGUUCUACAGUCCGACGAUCCCUGUGCUACACAUCGUAUGUACCGAAUCGGGUUUUUUUGGGAAAAAGGGAAAAAAAGGGAAAGUAUUAUGUUACGCCGUUCGGAUCUGCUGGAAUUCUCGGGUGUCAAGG | -0.894 |
| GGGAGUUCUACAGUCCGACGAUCAAGUCCUGUGCUACACAUCGUAUGUACCGAAUCGGGGCCCCGGGGCCCCGGCCCCGGAAAGUAUUAUGUUACGCCGUUCGGAUCUGCACUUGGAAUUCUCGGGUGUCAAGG | -0.879 |
| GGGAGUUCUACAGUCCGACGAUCAAGUCCUGUGCUACACAUCGUAUGUACCGAAUCAAAUUUAAAUUUUUAAAUUUAAAAAAGUAUUAUGUUACGCCGUUCGGAUCUGCACUUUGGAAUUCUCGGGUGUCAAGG | -1.45 |
| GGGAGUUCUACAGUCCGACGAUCAGUCCUGUGCUACACAUCGUAUGUACCGAAUCAAAUUUAAAUUUAAACCCCCCCAAAAAAGUAUUAUGUUACGCCGUUCGGAUCUGCACUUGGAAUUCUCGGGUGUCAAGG | 0.249 |
| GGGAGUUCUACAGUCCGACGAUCCUCAAGUCCUGUGCUACACAUCGUAUGUACCGAAUCGGUUGGGGUUGGGGUUGGAAAGUAUUAUGUUACGCCGUUCGGAUCUGCACUUCCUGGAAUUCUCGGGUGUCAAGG | 0.0158 |
| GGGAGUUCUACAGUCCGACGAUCCUCAAGUCCUGUGCUACACAUCGUAUGUACCGAAUCGGGCGGGGCGGGCGGGGAAAGUAUUAUGUUACGCCGUUCGGAUCUGCACUUCCAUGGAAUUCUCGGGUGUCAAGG | 1.02 |

Set 5
Target: Interferon regulatory factor 7, full length, phosphomimetic (IRF7, Homo sapiens, UniProt Q92985, residues 1-503, S471D/S472D/S475D/S476D/S477D/S483D/S484D/S487D)
Method: protein-binding microarray
Form: double-stranded DNA, one strand shown
Medium: in vitro
Concentration: 2200 nM top
Setting: 60-bp whole probe
Together with: salmon DNA 0.4 mg/ml
Relative to: random background probes
Reading: higher = stronger binding
Constant ends, left off below: GCCTAGCAC … GTCTTGATTCGCTTGACGCTGCTG
Construct (chain): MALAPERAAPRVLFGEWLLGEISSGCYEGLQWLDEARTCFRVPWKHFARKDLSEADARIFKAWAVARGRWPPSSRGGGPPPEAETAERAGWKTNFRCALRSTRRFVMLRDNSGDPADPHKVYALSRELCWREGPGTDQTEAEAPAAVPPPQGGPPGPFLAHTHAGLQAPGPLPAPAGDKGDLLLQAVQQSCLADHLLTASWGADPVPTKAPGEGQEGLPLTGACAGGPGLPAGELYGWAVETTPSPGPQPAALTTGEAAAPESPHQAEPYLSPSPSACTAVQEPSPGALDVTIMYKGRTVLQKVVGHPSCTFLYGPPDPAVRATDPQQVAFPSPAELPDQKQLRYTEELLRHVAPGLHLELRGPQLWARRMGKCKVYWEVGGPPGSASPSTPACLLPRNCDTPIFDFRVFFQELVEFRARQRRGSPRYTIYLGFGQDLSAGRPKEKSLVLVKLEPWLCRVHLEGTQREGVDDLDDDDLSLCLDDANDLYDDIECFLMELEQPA
| Strand | fitted relative affinity |
| --- | --- |
| GACGGTATCGGTTTCCGGACGTGCTAG | 2.75 z-score |
| CACATCTGCTGTGGGAGCACGTGCTAG | 0.572 z-score |
| GTACCACTCCAGTTCTGGGAGTGCTAG | 0.589 z-score |
| TTAGCTTTCGGTTCCGGTTAGTGCTAG | 11.7 z-score |
| GACGGACTGGACACTGGGGACGTGCTA | -0.859 z-score |
| GACGGTATCGGACTGGGGGCGTGCTAG | 0.0301 z-score |
| TTAGGTTCCCTTTTCCTTTCGTGCTAG | 4.62 z-score |
| GACGACTTCAGTTTCGAGACGTGCTAG | 3.65 z-score |
| TTAGGACGGGGGTTTCGGTTAGTGCTA | 4.19 z-score |
| TTAGGACTAGGGACTGGGTTAGTGCTA | -0.963 z-score |
| TCAAGTCTGGGCTACAACACTGTGCTA | -0.802 z-score |
| GACCAACTGAGACTGGAGACGTGCTAG | -0.277 z-score |
| GACGGTATCCTCCTCCTGACGTGCTAG | 1.05 z-score |
| TCACCTTTCAATCCTAGACTGTGCTAG | 1.79 z-score |
| ACTGCATTCCCTTTCTCAACGTGCTAG | 3.3 z-score |
| GACGAACTGAGTATCGAAACGTGCTAG | 0.124 z-score |
| TTCTCTTTCACTACTCCATTGTGCTAG | 3.78 z-score |
| TTAGGACTGCTTATCCTGTAGTGCTAG | 0.272 z-score |
| GACGGACTGCTTCTGCTGACGTGCTAG | -0.236 z-score |

Excerpt of the above (set 5):
| Strand | fitted relative affinity |
| --- | --- |
| TTAGGTTCCCTTTTCCTTTCGTGCTAG | 4.62 z-score |
| GACGACTTCAGTTTCGAGACGTGCTAG | 3.65 z-score |
| TTAGGACGGGGGTTTCGGTTAGTGCTA | 4.19 z-score |
| TTAGGACTAGGGACTGGGTTAGTGCTA | -0.963 z-score |
